Assay results gathered from unrelated publications.
A part holds a random share of what one study measured.

Series 1
Target: Interferon regulatory factor 3, full length, phosphomimetic (IRF3, Homo sapiens, UniProt Q14653, residues 1-427, S386D/S396D/S398D/S402D/T404D/S405D)
Method: protein-binding microarray
Form: double-stranded DNA, one strand shown
Medium: in vitro
Tested at: 2540 nM top
Setting: 60-bp whole probe
Added: salmon DNA 0.4 mg/ml
Reference: random background probes
Direction: higher = stronger binding
Measurement: fitted relative affinity
Shared flanks, not repeated: GCCTAGCAC … GTCTTGATTCGCTTGACGCTGCTG
Residues (chain): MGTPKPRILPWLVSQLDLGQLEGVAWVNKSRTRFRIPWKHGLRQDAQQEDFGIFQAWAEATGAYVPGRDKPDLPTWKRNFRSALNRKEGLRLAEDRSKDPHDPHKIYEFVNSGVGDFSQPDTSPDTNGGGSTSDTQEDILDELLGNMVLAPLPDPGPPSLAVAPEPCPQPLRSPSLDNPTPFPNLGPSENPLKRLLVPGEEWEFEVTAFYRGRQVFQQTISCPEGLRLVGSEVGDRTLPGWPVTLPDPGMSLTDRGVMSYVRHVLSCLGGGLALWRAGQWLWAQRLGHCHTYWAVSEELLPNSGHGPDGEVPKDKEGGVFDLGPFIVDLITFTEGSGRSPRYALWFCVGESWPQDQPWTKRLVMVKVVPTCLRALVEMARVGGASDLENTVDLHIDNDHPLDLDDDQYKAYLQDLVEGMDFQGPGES
TTAGGTTCCCTTTTCCGTTAGTGCTAG: 7.1 z-score
CCCATGCTGGATGAAGTACAGTGCTAG: -0.0685 z-score
GACGGACTGGACACTGAGGACGTGCTA: -0.452 z-score
TTAGGTTTCGGGTATTGGTTAGTGCTA: 3.75 z-score
TTAGGAGTGGGTCTCGGTTAGTGCTAG: -0.598 z-score
GACGATTTCAGTCTCGAGAGGTGCTAG: 2.43 z-score

Series 2
Target: Sal-like protein 4, full length isoform A (SALL4, Homo sapiens, UniProt Q9UJQ4, residues 1-1053)
Chain of UniProt Q9UJQ4 (whole entry, looked up): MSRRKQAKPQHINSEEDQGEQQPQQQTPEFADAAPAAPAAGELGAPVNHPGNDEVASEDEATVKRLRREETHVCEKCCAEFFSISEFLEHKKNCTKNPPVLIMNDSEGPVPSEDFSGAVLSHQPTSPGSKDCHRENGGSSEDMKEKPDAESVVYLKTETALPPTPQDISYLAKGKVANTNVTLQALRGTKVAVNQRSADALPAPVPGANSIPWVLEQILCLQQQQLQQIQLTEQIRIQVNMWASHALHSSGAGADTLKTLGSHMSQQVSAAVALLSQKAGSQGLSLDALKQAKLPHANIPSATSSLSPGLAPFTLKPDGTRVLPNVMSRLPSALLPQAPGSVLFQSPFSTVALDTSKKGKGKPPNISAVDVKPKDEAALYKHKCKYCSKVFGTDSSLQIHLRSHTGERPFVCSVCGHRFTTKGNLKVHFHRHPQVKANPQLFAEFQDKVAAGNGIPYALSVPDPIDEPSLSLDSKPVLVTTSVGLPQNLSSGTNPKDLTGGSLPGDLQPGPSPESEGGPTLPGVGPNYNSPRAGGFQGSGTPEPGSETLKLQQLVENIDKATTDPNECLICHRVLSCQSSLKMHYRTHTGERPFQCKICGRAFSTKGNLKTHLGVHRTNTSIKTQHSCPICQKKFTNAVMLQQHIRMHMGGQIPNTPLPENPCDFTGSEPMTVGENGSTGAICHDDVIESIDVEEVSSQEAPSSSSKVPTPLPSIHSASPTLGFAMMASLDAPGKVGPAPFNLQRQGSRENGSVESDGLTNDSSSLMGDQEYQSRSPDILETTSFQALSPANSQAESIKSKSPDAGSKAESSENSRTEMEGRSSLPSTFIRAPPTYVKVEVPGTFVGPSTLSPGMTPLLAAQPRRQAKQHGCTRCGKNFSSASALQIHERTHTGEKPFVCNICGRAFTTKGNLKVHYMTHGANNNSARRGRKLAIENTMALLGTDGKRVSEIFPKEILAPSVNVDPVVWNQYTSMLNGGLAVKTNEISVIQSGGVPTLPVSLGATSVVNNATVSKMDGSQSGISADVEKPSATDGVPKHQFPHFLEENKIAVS
Method: universal PBM
Form: double-stranded DNA, one strand shown
Medium: in vitro
Tested at: 600 nM
Setting: 8-mer, flanks averaged, mean of replicates
Direction: higher = stronger binding
Measurement: E-score
CACCACAG: -0.143
ATGGGGTG: -0.186
AACGCTGA: -0.163
CCCAGCAA: -0.0254
AAGGTCGC: -0.157
CCGTTCTC: -0.0513

Series 3
Target: Histone acetyltransferase KAT6A, both winged helices, GST fusion (KAT6A, Homo sapiens, UniProt Q92794, residues 1-181)
Method: protein binding microarray
Form: double-stranded DNA, one strand shown
Medium: in vitro
Tested at: not given
Setting: 8-mer, flanks averaged, mean of 2 arrays, mostly near background
Reference: not given
Direction: higher = stronger binding
Measurement: E-score
Construct (chain): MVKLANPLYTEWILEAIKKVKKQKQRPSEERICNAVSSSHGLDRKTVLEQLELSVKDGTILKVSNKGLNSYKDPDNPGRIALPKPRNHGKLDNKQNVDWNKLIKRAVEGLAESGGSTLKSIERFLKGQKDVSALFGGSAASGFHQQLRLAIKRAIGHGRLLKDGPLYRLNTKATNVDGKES
GGAGACTA: -0.0972
CAGCAATG: -0.181
CTTTAATC: -0.102
CGTCTATC: 0.0118

Other studies, line by line
PhoQ, residues 284 288 289 292 302 303 SVHLDV  fold induction (PhoP, residues 12 14 15 18 19 SPWRL (Escherichia coli, UniProt P23836); Sort-seq, measured: YFP reporter; E. coli; PhoQ-PhoP variant library, added: 10 µM Mg2+; reference: high Mg2+ state, higher = stronger signaling): 1.66

Excerpt of the above (series 1):
CCCATGCTGGATGAAGTACAGTGCTAG: -0.0685 z-score
GACGGACTGGACACTGAGGACGTGCTA: -0.452 z-score
